Experimental data collected from several papers.
Values joined by “and” are separate records of one study, mostly repeats; a detail may differ. Numbers after ± are the reported error.

For `CCCCCCCCCCCCCC(=O)N[C@H](CCN)C(=O)N[C@@H]1C(=O)N[C@@H](CCN)C(=O)N[C@@H](CC(C)C)C(=O)N[C@@H](CCN)C(=O)N[C@H](Cc2ccccc2)C(=O)N[C@@H](CC(C)C)C(=O)N[C@@H](CCN)C(=O)N[C@H](CCN)C(=O)N[C@@H](C(C)C)C(=O)N[C@@H](CC(=O)O)C(=O)O[C@@H]1C`, the AUC(0-inf) was 115000 ng·h/mL (rat, plasma; subcutaneous, 10 mg/kg).
`O=C(O)c1ccccc1/C=N/Nc1nc(-c2ccccc2Cl)cs1` — result for “maximum tolerated dose”: 1000 mg/kg (ICR mouse, male; oral, 15 (unit not given), single dose).
`CSCC[C@H](NC(=O)CNC(=O)[C@H](CCCCN)NC(=O)[C@H](CC(C)C)NC(=O)[C@@H]1CCCN1C(=O)[C@H](CO)NC(=O)[C@H](Cc1c[nH]cn1)NC(=O)[C@H](Cc1c[nH]c2ccccc12)NC(=O)[C@H](CCCNC(=N)N)NC(=O)[C@H](CC(C)C)NC(=O)[C@H](CCCNC(=N)N)NC(=O)[C@H](Cc1c[nH]c2ccccc12)NC(=O)[C@H](CS)NC(=O)CCCCCNC(=O)CN1CCN(CC(=O)O)CCN(CC(=O)O)CCN(CC(=O)O)CC1)C(=O)O` [copper-64 labelled] gave a tissue uptake of 6.82 %ID/g (ex vivo biodistribution; male C57BL/6J mice, stomach; intravenous, 1.85 MBq, 0.5 h, B16-F10 tumour-bearing).
For `COc1ccc(C([O-])=CC(=O)c2ccc(C(C)(C)C)cc2)cc1.Cc1ccc(C(C)C)cc1.[Cl-].[Ru+2]`, the viability was 100% (zebrafish larvae; 10 µM, 96 h, dark; reference: normal).
`CC[C@H](C)[C@H](NC(=O)[C@H](C)NC(=O)[C@H](CCCCN)NC(=O)[C@H](CC(C)C)NC(=O)[C@@H](N)Cc1ccccc1)C(=O)N[C@@H](CCCCN)C(=O)N[C@@H](CCCCN)C(=O)N[C@@H](Cc1ccccc1)C(=O)NCC(=O)N[C@@H](CCCCN)C(=O)N[C@@H](CCC(=O)O)C(=O)N[C@@H](Cc1ccccc1)C(=O)N[C@@H](CCCCN)C(=O)N[C@@H](CCCCN)C(=O)N[C@H](C(=O)NCC(=O)N[C@@H](C)C(=O)N[C@@H](CCCCN)C(=O)N[C@@H](CC(C)C)C(=O)N[C@@H](CCCCN)C(=O)O)[C@@H](C)CC` gave a hemolysis of 0.0204% and 0.633% (human red blood cells; 0.25 mg/L, 1 h).
The AUC of `CN1Cc2cc(Cl)ccc2-n2c(nnc2C2CCN(c3cccc(F)n3)CC2)C1` is reported as 7.86 ng·h/mL (male Sprague-Dawley rat, plasma; intravenous, 0.03 mg/kg).
The fibrinogen of `O=C1NC2(CC2)COc2ncc(F)cc2[C@H]2COCCN2c2ccn3ncc1c3n2` is reported as 1.87 ± 0.22 g/L (Sprague-Dawley rats, male, blood; oral, 2.5 mg/kg/day, end of treatment, 4-week subacute toxicity).
With `C[C@@H](Oc1ccc2c(c1)[C@H]1CCN[C@@]1(C)CO2)c1ccccc1` the -log Pe was 5.7 (lipid PAMPA; 10 µM, 16 h, pH 7.4, 25 °C).
`Cc1ccccc1-c1ccc(-c2nc(-c3ccc(CN(C)CCCC(=O)O)c([18F])c3)no2)cc1C(F)(F)F` has a tracer uptake of 1.34 %ID/g (rat, heart; 5 min).
`CSCC[C@H](N)C(=O)N[C@@H](C)C(=O)N[C@@H](CCCNC(=N)N)C(=O)N[C@@H](CCCNC(=N)N)C(=O)N[C@@H](CC(=O)O)C(=O)N[C@@H](CCCCN)C(=O)N[C@H](C(=O)N[C@@H](CC(=O)O)C(=O)N[C@@H](Cc1ccccc1)C(=O)N[C@@H](C)C(=O)N[C@@H](CCCNC(=N)N)C(=O)N[C@@H](CCCNC(=N)N)C(=O)N[C@@H](CCCNC(=N)N)C(=O)N[C@@H](CCCNC(=N)N)C(=O)NCCCCCC(=O)NCCCCC(NC(=O)CCCCCNC(=O)[C@H](CCCNC(=N)N)NC(=O)[C@H](CCCNC(=N)N)NC(=O)[C@H](CCCNC(=N)N)NC(=O)[C@H](CCCNC(=N)N)NC(=O)[C@H](C)NC(=O)[C@H](Cc1ccccc1)NC(=O)[C@H](CC(=O)O)NC(=O)[C@@H](NC(=O)[C@H](CCCCN)NC(=O)[C@H](CC(=O)O)NC(=O)[C@H](CCCNC(=N)N)NC(=O)[C@H](CCCNC(=N)N)NC(=O)[C@H](C)NC(=O)[C@@H](N)CCSC)[C@@H](C)O)C(=O)NCCCCC(NC(=O)C(CCCCNC(=O)CCCCCNC(=O)[C@H](CCCNC(=N)N)NC(=O)[C@H](CCCNC(=N)N)NC(=O)[C@H](CCCNC(=N)N)NC(=O)[C@H](CCCNC(=N)N)NC(=O)[C@H](C)NC(=O)[C@H](Cc1ccccc1)NC(=O)[C@H](CC(=O)O)NC(=O)[C@@H](NC(=O)[C@H](CCCCN)NC(=O)[C@H](CC(=O)O)NC(=O)[C@H](CCCNC(=N)N)NC(=O)[C@H](CCCNC(=N)N)NC(=O)[C@H](C)NC(=O)[C@@H](N)CCSC)[C@@H](C)O)NC(=O)CCCCCNC(=O)[C@H](CCCNC(=N)N)NC(=O)[C@H](CCCNC(=N)N)NC(=O)[C@H](CCCNC(=N)N)NC(=O)[C@H](CCCNC(=N)N)NC(=O)[C@H](C)NC(=O)[C@H](Cc1ccccc1)NC(=O)[C@H](CC(=O)O)NC(=O)[C@@H](NC(=O)[C@H](CCCCN)NC(=O)[C@H](CC(=O)O)NC(=O)[C@H](CCCNC(=N)N)NC(=O)[C@H](CCCNC(=N)N)NC(=O)[C@H](C)NC(=O)[C@@H](N)CCSC)[C@@H](C)O)C(N)=O)[C@@H](C)O` (some centres unmarked) has a tissue distribution of 1.1% and 1.68% and 1.8% (C57BL/6 mouse female, lungs; dose not given, 6 h; reference: total).
`COc1ccc(CNc2ccc3c(c2)S(=O)(=O)C=C3)cc1`: “red cell distribution width CV” 0.15% (male C57BL/6 mice, blood; intraperitoneal, 10 mg/kg, day 8, group average).
`CC(C)C[C@@H](NC(=O)[C@@H](CCCNC(=N)N)NC(=O)[C@@H](Cc1c[nH]cn1)NC(=O)[C@@H](Cc1c[nH]c2ccccc12)NC(=O)[C@@H](Cc1c[nH]cn1)NC(=O)[C@@H](Cc1ccccc1)NC(=O)[C@H](NC(=O)[C@@H](Cc1ccc(O)cc1)NC(=O)CNC(=O)CNC(=O)CCOCCOCCOCCNC(=O)CN1CCN(CC(=O)O)CCN(CC(=O)O)CC1)[C@H](C)O)C(=O)N[C@H](CC(N)=O)C(=O)N1CCC[C@@H]1C(=O)O` [gallium-68 labelled] has a tumour-to-tissue ratio of 6.78 ± 1.03 (male C57BL/6 mice; intravenous, 1.85 MBq, 120 min; reference: tumour over brain).
`CC(C)=CCC/C(C)=C\CCn1cc(CC(P(=O)(O)O)P(=O)(O)O)nn1` gave a C0 of 351 ng/mL (CD-1 mouse, plasma; intravenous, 0.5 mg/kg, single dose).
For `CC[C@H](C)[C@H](NC(=O)[C@H](Cc1ccc(O)cc1)NC(=O)[C@H](C)NC(=O)[C@H](CC(=O)O)NC(=O)[C@H](CC(C)C)NC(=O)[C@H](C)NC(=O)[C@H](C)NC(=O)[C@H](CCCCN)NC(=O)CNC(=O)[C@@H](NC(=O)[C@H](Cc1c[nH]cn1)NC(=O)[C@H](CCCCN)NC(=O)CNC(=O)[C@@H](NC(=O)[C@H](Cc1c[nH]cn1)NC(=O)[C@@H](NC(=O)[C@H](C)NC(=O)[C@H](CCCCN)NC(=O)[C@H](CCCCN)NC(=O)[C@@H](NC(=O)[C@H](Cc1c[nH]c2ccccc12)NC(=O)[C@H](CCCCN)NC(=O)[C@H](CCCNC(=N)N)NC(=O)[C@H](Cc1c[nH]c2ccccc12)NC(=O)CN)[C@@H](C)CC)[C@@H](C)O)C(C)C)[C@@H](C)CC)C(N)=O`, “chronic toxic concentration” read 25 µM (zebrafish embryos 28 hpf, E3 medium; 24 h).
For `CC(C)[C@@H]1NC(=O)CNC(=O)[C@H](CC(N)=O)NC(=O)[C@H](CCCNC(=N)N)NC(=O)[C@H](Cc2ccc(O)cc2)NC(=O)[C@H](C(C)C)NC(=O)[C@@H](NC(=O)[C@@H](NC(=O)[C@H](CC(N)=O)NC(=O)[C@H](Cc2c[nH]c3ccccc23)NC(=O)[C@H](C)NC(=O)[C@H](Cc2ccccc2)NC(=O)CNC(=O)[C@H](CCCCN)NC(=O)[C@H](Cc2ccccc2)NC(=O)[C@H](Cc2ccccc2)NC(=O)[C@H](CCCCN)NC(=O)OCC2c3ccccc3-c3ccccc32)C(C)C)CSSC[C@@H](C(=O)N[C@@H](Cc2c[nH]cn2)C(=O)N[C@@H](CCCNC(=N)N)C(=O)N[C@@H](CCCNC(=N)N)C(=O)N[C@@H](C)C(=O)N[C@@H](CC(N)=O)C(N)=O)NC(=O)[C@H](C(C)C)NC(=O)[C@H](CCCNC(=N)N)NC1=O`, the neutrophils was 19.7 ± 0.5% (ICR mice, blood; intraductal mammary, 10 mg/kg, day 5).
`CC[C@H](C)[C@H](NC(=O)[C@H](CCCCN)NC(=O)CNC(=O)[C@H](CC(C)C)NC(=O)[C@H](Cc1ccccc1)NC(=O)[C@H](CCCCN)NC(=O)[C@H](CO)NC(=O)[C@H](Cc1ccccc1)NC(=O)[C@H](Cc1c[nH]c2ccccc12)NC(=O)[C@H](CCC(N)=O)NC(=O)[C@@H](NC(=O)[C@H](Cc1ccccc1)NC(=O)CCCCCNC(=O)CN1CCN(CC(=O)O)CCN(CC(=O)O)CCN(CC(=O)O)CC1)C(C)C)C(=O)N[C@@H](CCC(=O)O)C(=O)N1CCC[C@H]1C(=O)N[C@@H](CC(=O)O)C(=O)N[C@H](C(=O)N[C@@H](CO)C(=O)N[C@@H](CCC(N)=O)C(=O)N[C@H](C(=O)N[C@@H](CCC(N)=O)C(=O)N[C@@H](CC(=O)O)C(=O)N1CCC[C@H]1C(=O)N[C@@H](CC(N)=O)C(=O)N[C@@H](CC(=O)O)C(=O)N[C@@H](CCC(N)=O)C(=O)N[C@@H](Cc1ccc(O)cc1)C(=O)N[C@@H](CCC(=O)O)C(=O)N1CCC[C@H]1C(=O)N[C@@H](Cc1ccccc1)C(=O)O)C(C)C)C(C)C` [copper-64 labelled] gave an SUVmean of 3.89 SUV (dynamic PET; mouse, CT26 tumour, checkpoint inhibitor-treated, tumour; intravenous, 100 µCi/mouse, 1380 s).
`CC[C@H](C)[C@H](NC(=O)[C@H](Cc1ccc(O)cc1)NC(=O)[C@@H](NC(=O)[C@H](CCCNC(=N)N)NC(=O)[C@@H](N)CC(=O)O)C(C)C)C(=O)N[C@@H](Cc1c[nH]cn1)C(=O)N1CCC[C@H]1C(=O)O` has an AUC of 914 ± 204 ng·h/mL (noncompartmental; Beagle dogs, both sexes, plasma; subcutaneous, 10 mg/kg/day, day 0).
